{"data": "Measured values from different studies", "note": "Every numbered part comes from another study and shows a few of its results, in no order. Several values in a cell are separate wells, animals, samples, runs or records.", "UniProt P49761, sequence (whole entry, looked up)": "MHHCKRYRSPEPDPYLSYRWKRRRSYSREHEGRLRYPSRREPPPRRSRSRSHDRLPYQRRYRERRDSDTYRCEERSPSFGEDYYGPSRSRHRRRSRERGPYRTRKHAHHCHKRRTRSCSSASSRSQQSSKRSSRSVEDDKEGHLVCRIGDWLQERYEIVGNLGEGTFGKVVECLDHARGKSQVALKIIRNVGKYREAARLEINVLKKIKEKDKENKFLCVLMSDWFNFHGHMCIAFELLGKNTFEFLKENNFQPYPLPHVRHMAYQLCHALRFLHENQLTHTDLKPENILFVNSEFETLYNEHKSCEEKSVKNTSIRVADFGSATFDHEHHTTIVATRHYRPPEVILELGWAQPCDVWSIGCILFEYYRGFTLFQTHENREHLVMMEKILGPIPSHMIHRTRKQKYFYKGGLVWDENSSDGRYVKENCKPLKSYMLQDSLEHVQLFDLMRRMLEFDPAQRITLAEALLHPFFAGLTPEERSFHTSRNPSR", "UniProt Q9H0K1, sequence (whole entry, looked up)": "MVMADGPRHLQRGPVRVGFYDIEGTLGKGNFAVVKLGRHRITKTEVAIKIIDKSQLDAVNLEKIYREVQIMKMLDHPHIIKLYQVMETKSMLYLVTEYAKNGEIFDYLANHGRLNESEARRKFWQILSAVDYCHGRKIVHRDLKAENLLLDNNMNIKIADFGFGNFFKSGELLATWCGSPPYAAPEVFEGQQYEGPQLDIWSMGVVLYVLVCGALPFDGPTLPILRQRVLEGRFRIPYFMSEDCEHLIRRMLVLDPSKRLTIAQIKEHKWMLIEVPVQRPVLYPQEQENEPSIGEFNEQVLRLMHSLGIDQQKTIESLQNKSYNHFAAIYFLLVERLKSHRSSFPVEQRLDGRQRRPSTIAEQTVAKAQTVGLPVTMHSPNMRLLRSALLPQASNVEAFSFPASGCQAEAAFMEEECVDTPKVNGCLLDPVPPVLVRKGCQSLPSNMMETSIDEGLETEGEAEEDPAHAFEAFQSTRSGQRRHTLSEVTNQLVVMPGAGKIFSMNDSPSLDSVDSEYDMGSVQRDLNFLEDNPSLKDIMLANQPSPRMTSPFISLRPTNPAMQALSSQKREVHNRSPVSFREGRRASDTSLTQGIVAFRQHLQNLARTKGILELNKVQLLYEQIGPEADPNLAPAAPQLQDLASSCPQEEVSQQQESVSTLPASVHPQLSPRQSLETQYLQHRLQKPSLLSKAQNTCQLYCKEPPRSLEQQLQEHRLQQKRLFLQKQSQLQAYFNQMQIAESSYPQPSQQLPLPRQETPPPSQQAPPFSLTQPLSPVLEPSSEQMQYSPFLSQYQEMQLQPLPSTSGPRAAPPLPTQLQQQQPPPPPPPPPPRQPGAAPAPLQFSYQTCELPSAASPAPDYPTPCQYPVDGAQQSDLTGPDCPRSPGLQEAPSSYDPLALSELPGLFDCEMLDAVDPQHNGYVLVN", "UniProt P22607, sequence (whole entry, unmodified, looked up)": "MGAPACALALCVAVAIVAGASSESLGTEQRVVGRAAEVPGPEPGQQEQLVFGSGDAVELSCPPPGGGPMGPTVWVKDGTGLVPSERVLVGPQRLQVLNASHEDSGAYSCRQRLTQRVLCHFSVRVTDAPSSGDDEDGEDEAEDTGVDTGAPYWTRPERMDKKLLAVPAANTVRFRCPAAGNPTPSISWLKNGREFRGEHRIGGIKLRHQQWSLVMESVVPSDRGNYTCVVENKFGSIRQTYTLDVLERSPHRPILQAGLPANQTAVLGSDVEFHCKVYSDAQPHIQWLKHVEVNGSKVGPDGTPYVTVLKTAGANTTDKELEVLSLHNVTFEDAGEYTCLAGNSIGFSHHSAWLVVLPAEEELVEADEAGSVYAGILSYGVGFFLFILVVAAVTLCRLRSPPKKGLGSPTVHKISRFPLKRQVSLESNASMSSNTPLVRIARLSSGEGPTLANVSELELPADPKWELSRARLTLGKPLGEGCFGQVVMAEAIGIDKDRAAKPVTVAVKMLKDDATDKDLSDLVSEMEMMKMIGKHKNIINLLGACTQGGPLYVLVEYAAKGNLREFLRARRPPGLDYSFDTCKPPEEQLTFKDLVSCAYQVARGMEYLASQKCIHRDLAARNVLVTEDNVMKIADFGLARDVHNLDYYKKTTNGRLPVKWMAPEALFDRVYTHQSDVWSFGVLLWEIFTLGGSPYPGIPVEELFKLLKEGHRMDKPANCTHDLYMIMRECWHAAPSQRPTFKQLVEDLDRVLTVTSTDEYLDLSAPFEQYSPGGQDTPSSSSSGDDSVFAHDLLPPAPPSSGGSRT"}
{"data": "Series 1", "observed": "AlphaScreen signal", "technique": "AlphaScreen counter screen", "matrix": "His6 peptide without bromodomain", "tested at": "50 µM", "setting": "assay interference check"}
{"SMILES": "c1cncc(-c2[nH]c3ncccc3c2CN2CCOCC2)c1", "inhibition [%]": 2.45}
{"SMILES": "O=C1NC(=O)C(=Cc2ccc3nccnc3c2)S1", "inhibition [%]": -0.3}
{"SMILES": "COc1ccc(Nc2nc(N)c(C(=O)c3ccc(Cl)cc3)s2)cc1", "inhibition [%]": 47.9}
{"SMILES": "O=C(Nc1nccs1)c1n[nH]c2ccccc12", "inhibition [%]": 7.65}
{"SMILES": "O=c1cc(N2CCOCC2)oc2c1ccc1ccccc12", "inhibition [%]": 9.95}
{"data": "Series 2", "cell line": "Huh-7", "tested at": "10 µM", "time": "24 h"}
{"SMILES": "CC12CC3CC(C)(C1)CC(N)(C3)C2", "viability [%]": 99.4}
{"SMILES": "CC(N)[C@]12C[C@H]3C[C@H](C[C@H](C3)C1)C2 (stereo partly drawn)", "viability [%]": 97.2}
{"SMILES": "NS(=O)(=O)c1cc2c(cc1Cl)N=CNS2(=O)=O", "viability [%]": 104}
{"SMILES": "CC1=C(/C=C/C(C)=C/C=C/C(C)=C/C(=O)O)C(C)(C)CCC1", "viability [%]": 97.1}
{"data": "Series 3", "cell line": "A-375", "tested at": "100 µM", "time": "36 h"}
{"SMILES": "COC(=O)C1=C(C)NC(C)=C(C(=O)OC(C)C)C1c1cccc2nonc12 (stereo not drawn)", "viability [%]": 14.9}
{"SMILES": "CC[C@H]1OC(=O)[C@@](C)(F)C(=O)[C@H](C)[C@@H](O[C@@H]2O[C@H](C)C[C@H](N(C)C)[C@H]2O)[C@](C)(OC)C[C@@H](C)C(=O)[C@H](C)[C@H]2N(CCCCn3cc(-c4cccc(N)c4)nn3)C(=O)O[C@]12C", "viability [%]": 1.32}
{"SMILES": "Oc1c(I)cc(I)c2cccnc12", "viability [%]": 21.6}
{"data": "Series 4", "SMILES": "Cc1cc(C)c(-n2ccn3nc(-c4cccnc4)cc23)cc1NC(=O)c1cc(C#N)cc(S(F)(F)(F)(F)F)c1", "observed": "cell-free assay", "technique": "competition with immobilised ligand", "tested at": "0.1 µM"}
{"target": "EGFR (Homo sapiens, UniProt P00533, L858R)", "remaining binding": "83.9%"}
{"target": "KIT (Homo sapiens, UniProt P10721, D816V)", "remaining binding": "98.8%"}
{"target": "CAMK4 (Homo sapiens, UniProt Q16566)", "remaining binding": "93.9%"}
{"target": "eIF-2-alpha kinase GCN2, C-terminal kinase domain (EIF2AK4, Homo sapiens, UniProt Q9P2K8, S808G)", "remaining binding": "100%"}
{"target": "SLK (Homo sapiens, UniProt Q9H2G2)", "remaining binding": "48.5%"}
{"target": "CDK15 (Homo sapiens, UniProt Q96Q40)", "remaining binding": "76%"}
{"target": "NEK1 (Homo sapiens, UniProt Q96PY6)", "remaining binding": "100%"}
{"target": "EGFR (Homo sapiens, UniProt P00533)", "remaining binding": "85.1%"}
{"target": "MAP4K4 (Homo sapiens, UniProt O95819)", "remaining binding": "95.1%"}
{"target": "EPHB6 (Homo sapiens, UniProt O15197)", "remaining binding": "3%"}
{"target": "TEK (Homo sapiens, UniProt Q02763)", "remaining binding": "3.1%"}
{"target": "MERTK (Homo sapiens, UniProt Q12866)", "remaining binding": "83.6%"}
{"target": "CLK3 (Homo sapiens, UniProt P49761)", "remaining binding": "87.7%"}
{"target": "FGFR3 (Homo sapiens, UniProt P22607, G697C)", "remaining binding": "100%"}
{"target": "CSNK2A1 (Homo sapiens, UniProt P68400)", "remaining binding": "74.2%"}
{"target": "Aurora kinase A (AURKA, Homo sapiens, UniProt O14965)", "remaining binding": "75.9%"}
{"target": "Tyrosine-protein kinase ABL1, phosphorylated (ABL1, Homo sapiens, UniProt P00519, T315I)", "remaining binding": "83.8%"}
{"target": "SIK2 (Homo sapiens, UniProt Q9H0K1)", "remaining binding": "94.2%"}
{"target": "IKBKB (Homo sapiens, UniProt O14920)", "remaining binding": "100%"}
{"target": "Macrophage colony-stimulating factor 1 receptor, autoinhibited (CSF1R, Homo sapiens, UniProt P07333)", "remaining binding": "92.9%"}
{"target": "Tyrosine-protein kinase JAK3, JH1 (JAK3, Homo sapiens, UniProt P52333)", "remaining binding": "95.3%"}
{"target": "ALK (Homo sapiens, UniProt Q9UM73, L1196M)", "remaining binding": "99.6%"}
{"target": "CAMK2A (Homo sapiens, UniProt Q9UQM7)", "remaining binding": "95%"}
{"target": "MUSK (Homo sapiens, UniProt O15146)", "remaining binding": "78.6%"}
{"data": "Series 5", "host": "mouse", "matrix": "microsomes or S9", "tested at": "2 µM", "time": "0.5 h"}
{"Structure (SMILES)": "COc1ccc(CCC(=O)N[C@@H]2CN(S(C)(=O)=O)C[C@H]2CN(C)C)cc1", "remaining compound": "93.7%"}
{"Structure (SMILES)": "COC(=O)c1cc(Cl)ccc1C1CCN(CC(=O)N2CCc3ccccc32)CC1", "remaining compound": "1.16%"}
{"Structure (SMILES)": "COc1cc(-c2nnc3ccc4ccccc4n23)cc(OC)c1OC", "remaining compound": "20.9%"}
{"Structure (SMILES)": "Cn1c(C(F)(F)F)nn(CCNS(=O)(=O)CCN2C(=O)CCCC2=O)c1=O", "remaining compound": "67.2%"}
{"data": "Series 6", "cell line": "mouse MPNST tumor cells", "technique": "high-content nuclear imaging", "measured": "cell number", "tested at": "10 µM", "time": "12 h", "setting": "mean of 2 replicates", "relative to": "plate mean", "direction": "higher = more cells"}
{"SMILES": "Cn1cc(-c2ccc3c(c2)CCN3C(=O)Cc2cccc(C(F)(F)F)c2)c2c(N)ncnc21", "nuclei count": "-0.185 z-score"}
{"SMILES": "CN1CCC(=C2c3ccccc3CCc3cccnc32)CC1", "nuclei count": "4.29 z-score and 1.59 z-score"}
{"SMILES": "CC(=O)NCC(=O)N1[C@@H]2CC[C@H]1c1ccc(Nc3ncc(C(F)(F)F)c(NC4CCC4)n3)cc12", "nuclei count": "-1.92 z-score"}
{"SMILES": "Nc1nc(=O)[nH]cc1F", "nuclei count": "2.27 z-score"}
{"data": "Mixed results", "POLQ ATPase domain": "DNA polymerase theta, ATPase domain (POLQ, Homo sapiens, UniProt O75417)", "UniProt O75417, sequence (whole entry, unmodified, looked up)": "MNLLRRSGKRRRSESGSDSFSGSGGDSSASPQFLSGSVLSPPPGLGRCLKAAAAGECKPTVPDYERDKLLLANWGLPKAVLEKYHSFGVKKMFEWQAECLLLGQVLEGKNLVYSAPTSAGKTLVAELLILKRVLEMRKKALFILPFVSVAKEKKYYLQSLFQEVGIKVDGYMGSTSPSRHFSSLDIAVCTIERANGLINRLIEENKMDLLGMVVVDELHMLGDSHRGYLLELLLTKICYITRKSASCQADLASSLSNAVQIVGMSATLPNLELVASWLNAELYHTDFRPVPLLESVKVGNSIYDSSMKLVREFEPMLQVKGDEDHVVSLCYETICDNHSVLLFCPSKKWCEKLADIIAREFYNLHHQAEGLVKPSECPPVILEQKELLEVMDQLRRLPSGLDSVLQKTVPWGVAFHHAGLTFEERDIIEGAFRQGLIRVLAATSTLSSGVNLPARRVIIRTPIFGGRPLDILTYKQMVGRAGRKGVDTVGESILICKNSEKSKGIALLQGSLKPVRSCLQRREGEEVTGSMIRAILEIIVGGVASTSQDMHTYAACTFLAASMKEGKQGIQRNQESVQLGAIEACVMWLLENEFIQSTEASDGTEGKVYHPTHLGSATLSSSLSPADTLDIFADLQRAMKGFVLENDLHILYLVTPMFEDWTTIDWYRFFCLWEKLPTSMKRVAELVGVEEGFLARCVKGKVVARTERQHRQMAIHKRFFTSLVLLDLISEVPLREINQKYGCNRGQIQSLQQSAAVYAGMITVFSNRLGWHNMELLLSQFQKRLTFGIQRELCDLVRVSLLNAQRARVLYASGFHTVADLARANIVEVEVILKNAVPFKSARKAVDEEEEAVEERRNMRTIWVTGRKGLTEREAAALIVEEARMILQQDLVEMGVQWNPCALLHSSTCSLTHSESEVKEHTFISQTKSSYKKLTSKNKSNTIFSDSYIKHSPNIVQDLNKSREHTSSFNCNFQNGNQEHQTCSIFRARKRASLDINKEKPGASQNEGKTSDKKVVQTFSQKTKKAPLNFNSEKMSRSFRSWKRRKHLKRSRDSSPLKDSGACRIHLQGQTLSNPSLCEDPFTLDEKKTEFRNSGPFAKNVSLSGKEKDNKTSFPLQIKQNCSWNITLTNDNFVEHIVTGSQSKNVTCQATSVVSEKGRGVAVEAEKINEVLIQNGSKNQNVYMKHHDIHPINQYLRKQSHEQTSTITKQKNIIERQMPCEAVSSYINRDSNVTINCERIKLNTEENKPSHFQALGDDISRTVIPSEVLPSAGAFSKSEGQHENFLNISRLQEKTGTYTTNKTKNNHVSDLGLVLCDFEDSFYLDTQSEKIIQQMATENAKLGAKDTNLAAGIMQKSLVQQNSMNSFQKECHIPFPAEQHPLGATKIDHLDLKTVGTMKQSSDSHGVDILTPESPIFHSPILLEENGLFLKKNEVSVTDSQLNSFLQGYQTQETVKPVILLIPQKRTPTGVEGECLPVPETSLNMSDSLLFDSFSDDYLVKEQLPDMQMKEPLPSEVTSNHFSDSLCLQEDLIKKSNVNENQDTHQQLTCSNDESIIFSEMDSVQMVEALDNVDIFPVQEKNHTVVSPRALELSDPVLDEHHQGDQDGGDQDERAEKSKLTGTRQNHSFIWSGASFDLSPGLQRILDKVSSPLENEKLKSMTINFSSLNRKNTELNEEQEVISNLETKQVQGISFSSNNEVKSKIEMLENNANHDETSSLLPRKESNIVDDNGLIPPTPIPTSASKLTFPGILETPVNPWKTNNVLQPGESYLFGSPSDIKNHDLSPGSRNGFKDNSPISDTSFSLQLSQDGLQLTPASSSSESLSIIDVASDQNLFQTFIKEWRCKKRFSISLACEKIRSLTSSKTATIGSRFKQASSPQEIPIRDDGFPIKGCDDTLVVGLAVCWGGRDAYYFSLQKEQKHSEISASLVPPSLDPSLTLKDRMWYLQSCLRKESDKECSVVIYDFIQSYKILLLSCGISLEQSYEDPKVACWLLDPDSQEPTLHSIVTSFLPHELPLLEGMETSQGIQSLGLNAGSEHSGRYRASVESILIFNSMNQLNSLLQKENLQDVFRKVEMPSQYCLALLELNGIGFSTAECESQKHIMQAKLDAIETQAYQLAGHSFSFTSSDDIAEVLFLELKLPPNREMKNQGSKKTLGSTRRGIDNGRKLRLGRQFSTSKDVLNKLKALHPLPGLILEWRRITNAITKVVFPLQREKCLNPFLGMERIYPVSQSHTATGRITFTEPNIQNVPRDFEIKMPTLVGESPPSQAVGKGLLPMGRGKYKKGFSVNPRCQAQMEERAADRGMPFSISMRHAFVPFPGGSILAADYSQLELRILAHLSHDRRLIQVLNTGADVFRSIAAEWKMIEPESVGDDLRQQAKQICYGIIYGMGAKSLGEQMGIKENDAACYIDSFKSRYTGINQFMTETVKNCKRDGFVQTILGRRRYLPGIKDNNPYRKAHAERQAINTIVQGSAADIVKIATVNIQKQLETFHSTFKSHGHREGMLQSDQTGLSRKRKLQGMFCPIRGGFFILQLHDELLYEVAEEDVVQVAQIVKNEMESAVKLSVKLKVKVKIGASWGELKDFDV"}
{"Compound": "CCn1c(-c2nonc2N)nc2c(C#CC(C)(C)O)ncc(OC[C@H]3CCCNC3)c21", "tested on": "POLQ ATPase domain", "assay": "enzyme activity, inhibitor", "setting": "77 µM", "scale": "relative to: untreated", "endpoint": "remaining activity", "value": "95.2% and 93.7% and 85.7% and 83.5%"}
{"Compound": "CC(C)n1cnc(-c2ccc(F)cc2)c1-c1ncc(C(=O)Nc2ccc(N3CCN(C)CC3)cc2)[nH]1", "test system": "human, idiopathic pulmonary fibrosis", "setting": "30 mg once daily, trial, treatment-emergent", "endpoint": "patients with hepatic steatosis", "value": "0%"}
{"Compound": "CC(=O)N[C@@H](Cc1c[nH]c2ccccc12)C(=O)N[C@@H](CCC(=O)C=[N+]=[N-])C(=O)OC(C)C", "test system": "C57BL/6 CES1-/- mice, MC-38 tumour", "setting": "dose not given, day 75 after inoculation, together with: anti-PD-1", "scale": "relative to: initial", "endpoint": "body weight", "value": "105% and 104%"}
{"Compound": "CC(=O)N[C@@H](CC(=O)N[C@@H](CCC(=O)O)C(=O)O)C(=O)O", "tested on": "POLQ ATPase domain", "assay": "enzyme activity, inhibitor", "setting": "77 µM", "scale": "relative to: untreated", "endpoint": "remaining activity", "value": "95.5%"}
{"note": "For quick reference, copied from above (series 4):"}
{"target": "FGFR3 (Homo sapiens, UniProt P22607, G697C)", "remaining binding": "100%"}
{"target": "CSNK2A1 (Homo sapiens, UniProt P68400)", "remaining binding": "74.2%"}
{"target": "Aurora kinase A (AURKA, Homo sapiens, UniProt O14965)", "remaining binding": "75.9%"}
{"target": "Tyrosine-protein kinase ABL1, phosphorylated (ABL1, Homo sapiens, UniProt P00519, T315I)", "remaining binding": "83.8%"}
